{"data": "Results collected from several papers", "note": "Every numbered part comes from another study and shows a few of its results, in no order. Values joined by “and” are separate records of one study, mostly repeats; a detail may differ."}
{"data": "Block 1", "target": "RNA binding protein fox-1 homolog 2, RRM domain, GST-SBP tag (RBFOX2, Homo sapiens, UniProt O43251-10, residues 100-194)", "method": "RNA Bind-n-Seq", "molecule type": "RNA", "medium": "in vitro", "tested at": "365 nM", "notes": "natural RNA segment, single round, ends assumed", "relative to": "no-protein control", "direction": "higher = stronger binding", "constant ends, left off below": "GGGAGUUCUACAGUCCGACGAUC … UGGAAUUCUCGGGUGCCAA", "Residues (chain)": "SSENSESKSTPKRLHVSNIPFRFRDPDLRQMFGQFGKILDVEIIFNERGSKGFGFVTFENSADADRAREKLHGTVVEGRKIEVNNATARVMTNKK"}
{"Strand": "AUUUGGGGCAAAGCCAUUCAACAAGUCUGUAGGAAGUUCCAAACUUUCCCACAUUUUCCUGUUUUCUUCUGAGCCCUCCAAACUGUUCCAGCCUCUGCCUGUUACCCAGU", "RBNS enrichment (R)": 0.57}
{"Strand": "UACCGUGAGCCUUCACAAACAUCAUUCUCGAGGUUUUUUGCUUUUCUCCCUGCUUCAGUCUCCAGAGAACAUAAAUGGCCAAAAAUGUUAAGUCUGGCUAUAUUUGAAGG", "RBNS enrichment (R)": 0.366}
{"Strand": "CCUCUCCACCCCCCACAUCGGUCCUCUCAAAUACCCAAUGGGAUUCCAGCUUGAAGGAUUGCAUCCUGCAGGGAAUGAGCACACCUGCCAAGGACACGUGCGCCUGCCUU", "RBNS enrichment (R)": 1.63}
{"Strand": "GUAAAGCUAUUGCACUGCGUUGCCCUGGACAAGUCUGAAAUUGGUAUAAAAGACAAGGUGCCCAAGGUCACAAGAACACCUCAUUGCCGACUGAAGCCAGUGUCAGGGCA", "RBNS enrichment (R)": 0.448}
{"Strand": "GCAGAUCCAGGCCUGUGGCUCGGCCCCGCUCAGCCCCAUAGUGGGUGGCAGCAGUGCUCUCUCCUGCCUCCUGCGGACUCAGGUCUCUGGGGCUGCUCACUAGGCCUUGU", "RBNS enrichment (R)": 0.225}
{"Strand": "UUGAAAACGUUAUUUAUAAUGAAAUCAACUAAAACUAUUUUUGCUAUAAGUUCUAUAAGGUGCAUAAAACCCUUAAAUUCAUCUAGUAGCUGUUCCCCCGAACAGGUUUA", "RBNS enrichment (R)": 0.827}
{"Strand": "CUGAGGCCAGAUGAUGCUAAAGCAGCUUGUGAGCCAAAUGAUCUGGGGUCUCCCCCAACAUUGUUGCUCUUUUAAACAAAUUGAAUUCUUUUUUCAAGGCUUAAAUUUUU", "RBNS enrichment (R)": 0.727}
{"Strand": "UUUCAGCCCCUCCCUGGAAUAGUGAGUUGGGAGGAUGGGGAGACAGCUAACCAACUGCAUUACCCAAACCAUAUUGCACUUUUAGUUCCCUAGUUUUCUAGGUGAGCUUC", "RBNS enrichment (R)": 0.756}
{"data": "Block 2", "target": "RING finger protein unkempt homolog, zinc fingers 1-6, GST-SBP tag (UNK, Homo sapiens, UniProt Q9C0B0, residues 30-357)", "method": "RNA Bind-n-Seq", "molecule type": "RNA", "medium": "in vitro", "tested at": "not given", "notes": "RNA with constant flanks, ends assumed", "relative to": "input RNA pool", "direction": "higher = stronger binding", "constant ends, left off below": "GGGAGUUCUACAGUCCGACGAUC … CAACAGAGGAUUGAGCAUCA", "chain of UniProt Q9C0B0 (30-357, looked up)": "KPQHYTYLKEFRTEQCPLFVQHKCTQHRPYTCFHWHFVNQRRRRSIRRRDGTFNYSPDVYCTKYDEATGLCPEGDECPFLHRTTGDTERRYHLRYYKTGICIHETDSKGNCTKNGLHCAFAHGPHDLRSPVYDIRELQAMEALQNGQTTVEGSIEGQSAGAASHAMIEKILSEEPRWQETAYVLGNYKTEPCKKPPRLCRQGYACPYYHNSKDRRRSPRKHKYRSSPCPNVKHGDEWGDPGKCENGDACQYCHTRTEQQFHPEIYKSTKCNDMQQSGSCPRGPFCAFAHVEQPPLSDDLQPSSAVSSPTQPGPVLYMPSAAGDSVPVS"}
{"Strand": "UCUAUCACUGAUGCUAAAAGUUGUGAGGGACAAAAUCCUGAGCUACUUCCAAAAACUCCUAUCCGUCCUCUGAAAACGGGGGUAUCGAAACCAAUUGUGAAGUCAACUUUAUCCCAGACA", "bound/input enrichment [ratio]": 0.188}
{"Strand": "UUGCUUUACUGGAAAGAACCAGAAUAUGCCAAAUAUCUAAAGUACCCUCAGUGCUUACAUAUGUCCGAGCUGCUCCAGUAUGAGCACUUUCGCAAGGAGCUGGUGAAUGCGCAGUGUGCG", "bound/input enrichment [ratio]": 0.158}
{"Strand": "AAUGUUCAUAUUUUGAGUAAAGGAAGCUAAAACCAUGUUUGCUUUCUGGUACUACAUGCAUCCGCGAAAGGUUAAGUAAGUUUUGUUCUCCACUGAAGUAAUACUUAACAUCUCAGAAAA", "bound/input enrichment [ratio]": 0.177}
{"Strand": "AGGAAAAACCAAACUACAAAGAGAUUUGUUUAUAAUAUACCGCCUAACAGUGAGACAAAGGCCGAAGAUUGCUCAGUGAUGCAGCCCCCUGCUGCCUACCCAGAAGAAAGCAAGGCCUUA", "bound/input enrichment [ratio]": 0.261}
{"Strand": "CUGCAUCUUCACUACACAGUGAGCAUCACCAGUUUUAUCCCACGUUUUAACUUUCUAAGCACCGAUCUGCCAGUGGUUGUGGAGACAUUUGUCAAGUACCUGAUUUCCCUCUCAGGAGCU", "bound/input enrichment [ratio]": 0.385}
{"Strand": "UCAGGAUACUGUAGUUUCCUCUAUCUAAUAGAGAACUUUUUGUUAACAGACACUGUAAAACCGUUUUGCUUUGUUGAAUAAUACGUGUGUACCUAAAAGAGGUAAGAGCAAAAAGUGUAA", "bound/input enrichment [ratio]": 0.377}
{"Strand": "GCCAAUAUCAAACGAGAACAGGGAAACAUUGAAGAGGCAGUUCGCUUGUAUCGUAAAGCAUCCGAAGUCUUCCCAGAGUUUGCUGCUGCCCAUUCAAAUUUAGCAAGUGUACUGCAGCAG", "bound/input enrichment [ratio]": 0.323}
{"Strand": "AAUGGACAAGAAGUCAAAAUCGAUCAGAGAAAUGUUAAAAAAGAGUUCACUAGCCAUGCUUCCGAUUCUCAUAUCUUAGAUUAUUAUGAAAAUCCAGCCAUCAAAGAGGAUGUAUCAACA", "bound/input enrichment [ratio]": 0.882}
{"data": "Block 3", "target": "TAR DNA-binding protein 43, full length, His tag (TARDBP, Homo sapiens, UniProt Q13148, residues 1-414)", "method": "RNA Bind-n-Seq", "molecule type": "RNA", "medium": "in vitro", "tested at": "20 nM", "notes": "6-mer, flanks averaged, single round", "added": "150 mM LiCl", "relative to": "input library", "direction": "higher = stronger binding"}
{"Strand": "GGGUUA", "6-mer enrichment (R)": 1.09}
{"Strand": "UUGCAG", "6-mer enrichment (R)": 0.981}
{"Strand": "GGUCUG", "6-mer enrichment (R)": 1.01}
{"Strand": "AGGCAU", "6-mer enrichment (R)": 0.883}
{"Strand": "AUAAAC", "6-mer enrichment (R)": 0.858}
{"Strand": "CACUAG", "6-mer enrichment (R)": 0.834}
{"Strand": "GGUCGG", "6-mer enrichment (R)": 1.19}
{"Strand": "AAUGGU", "6-mer enrichment (R)": 1.09}
{"data": "Further values, each from its own experiment"}
{"SMILES": "CO[C@@H](C)c1c(Nc2ccc([C@@H](N(C)C(=O)C3CCS(=O)(=O)CC3)C(F)(F)F)cc2)cnc2cc(Cl)nn12", "cell line": "normal organoid sample F", "assay": "CellTiter-Glo", "test system": "human, normal-adjacent epithelium", "conditions": "1 µM", "how to read": "relative to: DMSO", "quantity": "viability", "result": "155% and 139%"}
{"note": "Some of these lines once more (block 3):"}
{"Strand": "UUGCAG", "6-mer enrichment (R)": 0.981}
{"Strand": "GGUCGG", "6-mer enrichment (R)": 1.19}
